Measurements collected from several papers.
Each line is one published result; not all experiments were run side by side. ± marks the error that the study gave.
metK 1-426: metK 1-426 (Sinorhizobium meliloti, UniProt Q92SI4)
CD3E 23-207: CD3E 23-207 (Homo sapiens, UniProt P07766)
Sequence of UniProt P07766 (whole entry, looked up): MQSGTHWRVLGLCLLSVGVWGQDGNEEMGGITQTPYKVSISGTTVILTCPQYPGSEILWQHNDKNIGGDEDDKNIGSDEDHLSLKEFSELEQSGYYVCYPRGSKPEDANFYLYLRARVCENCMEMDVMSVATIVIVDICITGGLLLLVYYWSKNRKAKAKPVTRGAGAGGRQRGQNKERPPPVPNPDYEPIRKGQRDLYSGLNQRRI
B1: UGT1A9 (Homo sapiens, UniProt O60656); chain GKLLVVPMDGSHWFTMRSVVEKLILRGHEVVVVMPEVSWQLGRSLNCTVKTYSTSYTLEDLDREFKAFAHAQWKAQVRSIYSLLMGSYNDIFDLFFSNCRSLFKDKKLVEYLKESSFDAVFLDPFDNCGLIVAKYFSLPSVVFARGILCHYLEEGAQCPAPLSYVPRILLGFSDAMTFKERVRNHIMHLEEHLLCHRFFKNALEIASEILQTPVTEYDLYSHTSIWLLRTDFVLDYPKPVMPNMIFIGGINCHQGKPLPMEFEAYINASGEHGIVVFSLGSMVSEIPEKKAMAIADALGKIPQTVLWRYTGTRPSNLANNTILVKWLPQNDLLGHPMTRAFITHAGSHGVYESICNGVPMVMMPLFGDQMDNAKRMETKGAGVTLNVLEMTSEDLENALKAVINDKSYKENIMRLSSLHKDRPVEPLDLAVFWVEFVMRHKGAPHLRPAAHDLTWYQYHSLDVIGFLLAVVLTVAFITFKCCAYGYRKCLGKKGRVKKAHKSKTH
Sequence of UniProt P07271 (whole entry, looked up): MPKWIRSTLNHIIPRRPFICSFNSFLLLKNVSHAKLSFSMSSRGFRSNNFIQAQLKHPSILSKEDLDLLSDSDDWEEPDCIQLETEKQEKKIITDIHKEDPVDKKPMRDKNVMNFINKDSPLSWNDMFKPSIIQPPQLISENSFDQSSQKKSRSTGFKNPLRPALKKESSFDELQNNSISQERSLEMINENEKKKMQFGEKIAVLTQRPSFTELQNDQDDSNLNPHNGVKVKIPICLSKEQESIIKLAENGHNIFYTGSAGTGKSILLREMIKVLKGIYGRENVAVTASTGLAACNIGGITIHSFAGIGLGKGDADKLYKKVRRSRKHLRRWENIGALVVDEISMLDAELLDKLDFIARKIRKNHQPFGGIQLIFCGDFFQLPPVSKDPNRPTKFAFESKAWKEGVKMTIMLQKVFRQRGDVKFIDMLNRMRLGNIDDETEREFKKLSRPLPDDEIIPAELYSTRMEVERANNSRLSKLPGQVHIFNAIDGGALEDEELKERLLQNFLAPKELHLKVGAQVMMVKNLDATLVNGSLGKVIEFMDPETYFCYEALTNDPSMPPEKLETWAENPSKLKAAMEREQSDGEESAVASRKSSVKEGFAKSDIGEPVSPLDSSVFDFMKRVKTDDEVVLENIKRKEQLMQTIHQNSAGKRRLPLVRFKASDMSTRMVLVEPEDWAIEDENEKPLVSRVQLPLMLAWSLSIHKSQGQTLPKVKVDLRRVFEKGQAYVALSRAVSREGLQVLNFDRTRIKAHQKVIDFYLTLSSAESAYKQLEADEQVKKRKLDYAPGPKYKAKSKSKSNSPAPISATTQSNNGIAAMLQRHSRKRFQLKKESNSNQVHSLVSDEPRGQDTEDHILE
Sequence of UniProt P76318 (whole entry, looked up): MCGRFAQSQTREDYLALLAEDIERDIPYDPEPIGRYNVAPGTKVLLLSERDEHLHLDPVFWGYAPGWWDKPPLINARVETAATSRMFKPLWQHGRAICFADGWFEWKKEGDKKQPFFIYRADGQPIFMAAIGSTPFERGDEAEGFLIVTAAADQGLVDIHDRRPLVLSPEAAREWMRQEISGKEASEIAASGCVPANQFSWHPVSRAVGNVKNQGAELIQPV
Sequence of UniProt Q97W02 (whole entry, looked up): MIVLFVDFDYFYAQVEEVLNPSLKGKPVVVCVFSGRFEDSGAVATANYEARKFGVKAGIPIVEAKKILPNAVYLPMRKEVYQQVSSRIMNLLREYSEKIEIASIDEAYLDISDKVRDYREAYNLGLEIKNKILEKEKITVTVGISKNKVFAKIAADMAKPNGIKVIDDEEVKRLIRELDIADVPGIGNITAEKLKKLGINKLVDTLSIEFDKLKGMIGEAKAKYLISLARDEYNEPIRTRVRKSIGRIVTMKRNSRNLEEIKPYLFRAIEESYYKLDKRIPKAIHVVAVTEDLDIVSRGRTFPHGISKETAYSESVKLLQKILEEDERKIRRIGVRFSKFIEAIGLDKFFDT
Sequence of UniProt P17676 (whole entry, looked up): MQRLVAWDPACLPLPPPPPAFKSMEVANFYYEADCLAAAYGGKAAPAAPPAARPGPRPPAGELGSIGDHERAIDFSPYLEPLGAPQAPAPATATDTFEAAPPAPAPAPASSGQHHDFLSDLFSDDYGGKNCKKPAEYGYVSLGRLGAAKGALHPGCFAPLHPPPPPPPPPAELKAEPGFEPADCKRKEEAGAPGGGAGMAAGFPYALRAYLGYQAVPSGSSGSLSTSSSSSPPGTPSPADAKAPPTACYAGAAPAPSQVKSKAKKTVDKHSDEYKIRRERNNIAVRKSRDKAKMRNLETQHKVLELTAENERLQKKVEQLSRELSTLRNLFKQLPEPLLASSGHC

`DNA 1 AACGACGGCCAGTGAATTC / DNA 2 CCCGCGCGAATTCACTGGCCGTCGTT (dsDNA; aminopyrene-dG adduct, 5' overhang)` has a Kd of 9.8 ± 0.9 nM (dbh full length assumed (Saccharolobus solfataricus, UniProt Q97W02); EMSA; double-stranded DNA; added: Mg2+).
For `GUUACCCCAUGAUGCUCAGGUCCGCCGCAUCUCCUGGGUCGUGGGGUCGGUCGGCUGGCCUCGGACUUGCGGAUUCCUCGUGCUGCAACCGGACCAGUCGAC (structured RNA)`, the Kd was 6.7 nM (metK 1-426; filter binding).
With `GGGAGGGAGGGAGAGGGA (ssRNA)` the Kd was 5800 ± 1300 nM (EXOSC3 fragment (Homo sapiens); MST; apparent).
`AGCTGCCAGGCACCAGTGTCA / TGACACTGGTGCTTGGCAGCT (dsDNA; 21-bp, G-T mismatch, dT20 linker)` has a Kd of 69 ± 4 nM (mutS fragment (Escherichia coli); SPR; without BSA).
For `GGGUAUCGUGCGCAAUUUUUUCAGAAUCGAAAGGUUCAAAGUACAAAUAAGCAUAUAAGGAAAAGAGAGAAUGGCUAAGGGGCAAUCUUUACAAGAUCCGUUC (structured RNA)`, the Kd was 1.1 ± 0.2 nM (hfq fragment V43C (Escherichia coli); EMSA).
`GACTACGTACTGTTACGGCTCCATCTCTACCGCAATCAGGCCAGATCTGC (ssDNA; fluorescein on T26)` gave a Kd of 20 nM (p44/p62 (Chaetomium thermophilum); fluorescence anisotropy; Mg2+ 5 mM).
With `CGGTNGATTC (ssDNA; THF abasic at position 5)` the Kd was 170 nM (yedK 2-222 (Escherichia coli, UniProt P76318); ITC).
For `GAGUUGAGUUGAGUUGAGUUGAGUUGAGUUGAGUUGAGUUGAGUUGAGUUGAGUU (ssRNA; single strand)`, the Kd was 127 ± 5 nM (mtrB full length assumed T30V/D39V (Bacillus subtilis, UniProt P19466); filter binding; added: no tryptophan).
`B1 (UGT1A9)` has a Vmax of 0.000552 µmol/min/mg (O=C(/C=C/c1ccccc1O)c1ccccc1; steady-state kinetics; pH 7.4, 37 °C).
For `GAUCGAUCGGGCAGCGCACUCCUCCUCCCAGCGCGCCCGAUACGGAUUGGCGACACUCCUCCUCCCGGUUGCCAAUCAGAUCAAGCAACGCCCGCUGGACCUCCUCCCCCAGCGGGCGUUGUU (structured RNA)`, the Kd was 21.2 nM (metK 1-426; filter binding).
The Kd of `GGGGAUGAAGCAAGGGGGUGCCCCAUGCGUCAGUUUUAUCAGCACUAUUUUACCGCGACAGCGAAGUUGUGCUGGUUGCGUUGGUUAAGCGUCCCACAACGAUUAACCAUGCUUGAAGGACUGAUGCAGUGGGAUGACCGCAAUUCUGAAAGUUGACUUGCCUGCAUCAUGUGUGACUGAGUAUUGGUGUAAAAUCACCCGCCAGCAGAUUAUACCUGCUGGUUUUUUUU (structured RNA)` is reported as 3.37 nM (hfq full length assumed (Escherichia coli, UniProt P0A6X3); EMSA).
`TGGACTGTCGTCNGGAGNGGGGTAGAGTGGGGNTGGGGCTATGGGGCTAGCATCGGATA (XNA; AEGIS dP at 13, 18, 33)` gave a Kd of 81 ± 29 nM (CD3E 23-207; flow cytometry; Jurkat.E6; 37 °C, apparent, not purified).
`CTGGAGTACAATTCCATTCCATTCCATTCCATTCCATTCCATTCCATTCCATTCCATTCCATTCCATTCCATTCCATTCCATTCCATTCCTAACTTTCTA (dsDNA)` gave a Kd of 5980 nM (F2 alpha-thrombin (Homo sapiens); ITC; double-stranded DNA, one strand shown; pH 7.2).
`GTCGTCNGGAGNGGGGTAGAGTGGGGNTGGGGCTATGGGGCTAGCATCGGATA (XNA; AEGIS dP at 7, 12, 27)` gave a Kd of 57 ± 23 nM (CD3E 23-207; flow cytometry; Jurkat.E6; 37 °C, apparent, not purified).
For `GAUCCUUGUCGUCCCUGCCUUGCAUACGAACCAGGUUGUUCCAGCAACCAUUCGGGCCACGAUGAGGAACCGACCGCGAUCCUGCUUCUCCGUAACCCCCAAAGGUUCUGGUGCCGGCGAUCCGACGGUCGGCGCCUUUGGCCGGGCGGCCGCCCGGCCAAAGGCAU (structured RNA)`, the Kd was 12.4 nM (metK 1-426; filter binding).
`GCGGAGGCGTGTGCGCCAGCACAATTCCAAGGTGGAAACCGTGATCGCCCCCTGCACCGGAATGCAGCCCCCTTGGGCTATGCTCGGCACAGCAGACTGGTGACCGGAAGGGGCATGGGGACACCCTGGCGTGGAAGCTGGCGCGGCTGG (dsDNA (Lysobacter enzymogenes); blunt)` gave a Kd of 560 nM (pilR 1-471 (Lysobacter enzymogenes, UniProt A0A5P2TY02); MST; double-stranded DNA, one strand shown).
`AGTTGAGGGGACTTTCCCAGGC (dsDNA)` gave a Kd of 103 ± 20 nM (HMGB2 box A A17M (Homo sapiens, UniProt P26583); fluorescence anisotropy; double-stranded DNA, one strand shown).
`UAGUUUAGUUUAGUUUAGUUUAGUUUAGUUUAGUUUAGUUUAGUUUAGUUUAGUU (ssRNA; single strand)` has a Kd of 136 nM (mtrB full length assumed T30V (Bacillus subtilis, UniProt P19466); filter binding).
`CATTATCCTAAACATAACTTAACTAGUTTAACTTAATTCTTCAATATACC / GGTATATTGAAGAATTAAGTTAAGCTAGTTAAGTTATGTTTAGGATAATG (dsDNA; blunt, dU at top 27, U:G mismatch)` has a Kd of 30.5 ± 0.6 nM (MSH2/MSH6 (Homo sapiens); EMSA; added: ADP 0.1 mM).
With `AAGCAGTGGTATCAACGCAGAGAAATATGTATGACAAGGAAGG / CCTTCCTTGTCATACAT (DNA duplex; 17 bp, 5' overhang 26 nt)` the Kd was 18.5 nM (PIF1 full length assumed (Saccharomyces cerevisiae, UniProt P07271); single-molecule PIFE; added: ATP 2 mM).
With `AGGATTGCGCAATAT (dsDNA; blunt, 5mC at CpA)` the Kd was 50 ± 10 nM (CEBPB 269-344 (Homo sapiens, UniProt P17676); fluorescence polarization; double-stranded DNA, one strand shown).
